Assay results of several laboratories.
Each numbered part is a random draw from the data of one study; scales do not carry over between parts.

Block 1 — method: Spec-seq; form: double-stranded DNA, one strand shown; matrix: in vitro; tested at: not given; setting: whole probe, mean of replicates; relative to: not given; direction: lower = stronger binding; shared flanks, not repeated: GAGTCGTCTCGTCAGCAC … CCGTAGAGCACTCAGGTC
Target: POU, POU domain (Salpingoeca helianthica)
Construct (chain): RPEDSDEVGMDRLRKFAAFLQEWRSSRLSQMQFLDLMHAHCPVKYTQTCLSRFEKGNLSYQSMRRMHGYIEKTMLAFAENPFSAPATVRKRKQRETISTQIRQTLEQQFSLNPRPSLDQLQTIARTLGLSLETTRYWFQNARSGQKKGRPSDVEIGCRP
Oligonucleotide	relative binding energy [ln ratio]
ATGCCTGG	1.33
ATGCTAGG	1.45
ATTAATAT	0.0245
ATGCGAAT	1.45
TCTGTAAT	0.478

Block 2 — method: aptamer microarray, sandwich; form: DNA with 2'F-ANA; matrix: in vitro; tested at: 200 nM; with: Cy3 exosite-II aptamer, 400 nM; direction: higher = stronger binding; oligonucleotide: GGTTGGTGTGGTTGG
Target: Prothrombin, mature alpha-thrombin (F2, Homo sapiens, UniProt P00734)
Setting: whole 15-mer aptamer, many near background
Modification	mean fluorescence intensity [a.u.]
2'F-ANA at 2 5 7 9 11 13 14	43.9
2'F-ANA at 1 2 4 5 6 8 10 12 13 14	53.7
2'F-ANA at 2 3 4 7 10 11 12 14	214
2'F-ANA at 1 7 9 14	69.1
2'F-ANA at 1 4 5 8 11 12 14	50.6
2'F-ANA at 1 2 4 6 8 9 10 13 14	56
2'F-ANA at 1 2 3 5 6 7 8 9 15	70.9
2'F-ANA at 6 8 9 13 14	208

Block 3 — method: protein-binding microarray; form: double-stranded DNA, one strand shown; matrix: in vitro; tested at: 250 nM; setting: 60-bp whole probe; with: salmon DNA 0.4 mg/ml; relative to: random background probes; direction: higher = stronger binding; shared flanks, not repeated: GCCTAGCAC … GTCTTGATTCGCTTGACGCTGCTG
Target: Interferon regulatory factor 7, full length, phosphomimetic (IRF7, Homo sapiens, UniProt Q92985, residues 1-503, S101K/S471D/S472D/S475D/S476D/S477D/S483D/S484D/S487D)
Chain of UniProt Q92985 (whole entry, unmodified, looked up): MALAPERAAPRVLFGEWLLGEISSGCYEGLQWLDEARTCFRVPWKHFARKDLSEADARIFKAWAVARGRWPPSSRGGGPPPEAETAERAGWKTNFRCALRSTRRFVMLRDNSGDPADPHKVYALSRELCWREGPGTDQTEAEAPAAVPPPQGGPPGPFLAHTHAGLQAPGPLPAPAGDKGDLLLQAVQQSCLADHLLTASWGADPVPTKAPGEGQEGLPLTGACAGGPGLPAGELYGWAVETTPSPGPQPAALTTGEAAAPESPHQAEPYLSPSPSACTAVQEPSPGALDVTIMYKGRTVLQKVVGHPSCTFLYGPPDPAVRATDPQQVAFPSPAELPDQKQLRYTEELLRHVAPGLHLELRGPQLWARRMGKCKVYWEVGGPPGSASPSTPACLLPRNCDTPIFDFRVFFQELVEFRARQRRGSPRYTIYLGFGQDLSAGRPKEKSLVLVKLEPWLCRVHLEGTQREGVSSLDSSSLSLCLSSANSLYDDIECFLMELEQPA
Oligonucleotide	log fluorescence
TTAGATATCGGGTTTCGATAAGTGCTA	2.71 z-score
GCGGTTGGATCACAAGGTCAGTGCTAG	-0.797 z-score
AACGGTATCGGTCTCGGGACGTGCTAG	0.783 z-score
GACGGTCTCGGTCTGGGGACGTGCTAG	0.72 z-score
TTTGGACTGCTTATCCTTTAGTGCTAG	-0.434 z-score
TTATAACTGGGGACTGGATTAGTGCTA	0.149 z-score
GACGGTCTCTGTTTCGGGACGTGCTAG	3.11 z-score

Further values, each from its own experiment
Molecule	target	test	system	setting	how to read	measurement	result
PhoQ, residues 284 288 289 292 302 303 NLSRDF	PhoP, residues 12 14 15 18 19 SYFRT (Escherichia coli, UniProt P23836)	Sort-seq, item: YFP reporter	E. coli	PhoQ-PhoP variant library, with: 10 µM Mg2+	relative to: high Mg2+ state, higher = stronger signaling	fold induction	6.97

Some of these lines once more (block 3):
Oligonucleotide	log fluorescence
GCGGTTGGATCACAAGGTCAGTGCTAG	-0.797 z-score
AACGGTATCGGTCTCGGGACGTGCTAG	0.783 z-score
